Experimental data of several laboratories.
Protocols differ between the studies behind these lines. ± gives the spread as reported.
LDHA: L-lactate dehydrogenase A chain (LDHA, Homo sapiens, UniProt P00338)
GLP1R: Glucagon-like peptide 1 receptor (GLP1R, Homo sapiens, UniProt P43220)
KCNT1: Potassium channel subfamily T member 1 (KCNT1, Homo sapiens, UniProt Q5JUK3)
Grm2: Metabotropic glutamate receptor 2 (Grm2, Rattus norvegicus, UniProt P31421)
GRM4: Metabotropic glutamate receptor 4 (GRM4, Homo sapiens, UniProt Q14833)
Lysophospholipase-like protein 1: Lysophospholipase-like protein 1 (Mus musculus, UniProt Q3UFF7)
ALDH1A1: Aldehyde dehydrogenase 1A1 (ALDH1A1, Homo sapiens, UniProt P00352)

Sequences of proteins named here, by UniProt entry; tags and fusion partners are left off. A change or cut given only in a name is not applied to a line headed by its entry. Residues count along the entry.
UniProt P43220, whole entry, looked up: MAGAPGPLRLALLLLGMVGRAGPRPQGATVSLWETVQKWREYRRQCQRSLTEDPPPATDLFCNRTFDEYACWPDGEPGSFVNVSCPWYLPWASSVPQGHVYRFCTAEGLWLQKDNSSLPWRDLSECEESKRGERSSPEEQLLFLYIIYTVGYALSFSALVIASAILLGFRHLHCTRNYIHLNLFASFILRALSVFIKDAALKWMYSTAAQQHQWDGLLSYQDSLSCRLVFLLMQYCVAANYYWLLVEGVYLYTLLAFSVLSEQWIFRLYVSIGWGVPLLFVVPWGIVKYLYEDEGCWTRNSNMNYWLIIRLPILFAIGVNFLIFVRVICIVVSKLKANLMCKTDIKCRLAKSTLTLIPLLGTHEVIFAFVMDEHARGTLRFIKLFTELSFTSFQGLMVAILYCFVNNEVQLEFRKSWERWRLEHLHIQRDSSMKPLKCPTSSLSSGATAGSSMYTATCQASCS
UniProt P43220, 24-463 limits assumed: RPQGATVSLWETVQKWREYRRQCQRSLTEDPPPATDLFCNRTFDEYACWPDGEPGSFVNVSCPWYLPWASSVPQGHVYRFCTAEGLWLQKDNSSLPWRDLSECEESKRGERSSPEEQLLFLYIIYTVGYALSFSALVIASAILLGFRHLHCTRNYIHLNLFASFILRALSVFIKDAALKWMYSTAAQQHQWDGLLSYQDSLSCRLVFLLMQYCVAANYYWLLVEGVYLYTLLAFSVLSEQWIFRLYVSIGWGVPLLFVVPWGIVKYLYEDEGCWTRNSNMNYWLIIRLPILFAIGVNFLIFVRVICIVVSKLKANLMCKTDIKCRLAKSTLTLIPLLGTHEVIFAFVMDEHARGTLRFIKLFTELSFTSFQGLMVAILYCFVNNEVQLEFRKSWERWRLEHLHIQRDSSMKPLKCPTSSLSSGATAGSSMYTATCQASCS
UniProt Q14833, 33-912 limits assumed: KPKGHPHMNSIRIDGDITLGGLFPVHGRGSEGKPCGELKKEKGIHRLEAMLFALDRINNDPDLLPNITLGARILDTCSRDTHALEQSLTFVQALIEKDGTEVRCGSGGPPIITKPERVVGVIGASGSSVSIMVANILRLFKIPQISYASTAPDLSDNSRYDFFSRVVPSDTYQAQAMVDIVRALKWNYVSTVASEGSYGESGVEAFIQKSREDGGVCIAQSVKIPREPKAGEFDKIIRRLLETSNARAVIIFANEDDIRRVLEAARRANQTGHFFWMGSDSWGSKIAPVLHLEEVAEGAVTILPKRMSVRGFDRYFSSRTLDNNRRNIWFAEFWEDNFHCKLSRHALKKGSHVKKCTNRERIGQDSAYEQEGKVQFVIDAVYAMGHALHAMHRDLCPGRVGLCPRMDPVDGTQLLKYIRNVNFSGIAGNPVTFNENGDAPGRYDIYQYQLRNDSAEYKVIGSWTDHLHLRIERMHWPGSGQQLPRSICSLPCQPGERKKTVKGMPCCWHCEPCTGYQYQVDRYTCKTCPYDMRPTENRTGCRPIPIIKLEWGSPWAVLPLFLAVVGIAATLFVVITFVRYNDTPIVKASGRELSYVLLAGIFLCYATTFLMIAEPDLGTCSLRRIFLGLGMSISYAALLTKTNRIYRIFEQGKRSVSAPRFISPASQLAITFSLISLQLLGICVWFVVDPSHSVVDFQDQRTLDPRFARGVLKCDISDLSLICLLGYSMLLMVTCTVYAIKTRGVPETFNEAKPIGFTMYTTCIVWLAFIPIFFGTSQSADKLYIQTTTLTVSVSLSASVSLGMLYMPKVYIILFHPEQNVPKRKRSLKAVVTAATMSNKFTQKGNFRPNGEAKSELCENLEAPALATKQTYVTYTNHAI
UniProt Q3UFF7, whole entry: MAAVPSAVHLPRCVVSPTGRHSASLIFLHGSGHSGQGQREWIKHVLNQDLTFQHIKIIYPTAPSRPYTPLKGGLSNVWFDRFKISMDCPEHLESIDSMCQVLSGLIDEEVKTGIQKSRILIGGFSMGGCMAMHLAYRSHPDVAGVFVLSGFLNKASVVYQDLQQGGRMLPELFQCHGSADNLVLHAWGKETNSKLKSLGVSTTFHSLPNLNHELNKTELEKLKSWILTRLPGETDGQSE
UniProt P08912, whole entry: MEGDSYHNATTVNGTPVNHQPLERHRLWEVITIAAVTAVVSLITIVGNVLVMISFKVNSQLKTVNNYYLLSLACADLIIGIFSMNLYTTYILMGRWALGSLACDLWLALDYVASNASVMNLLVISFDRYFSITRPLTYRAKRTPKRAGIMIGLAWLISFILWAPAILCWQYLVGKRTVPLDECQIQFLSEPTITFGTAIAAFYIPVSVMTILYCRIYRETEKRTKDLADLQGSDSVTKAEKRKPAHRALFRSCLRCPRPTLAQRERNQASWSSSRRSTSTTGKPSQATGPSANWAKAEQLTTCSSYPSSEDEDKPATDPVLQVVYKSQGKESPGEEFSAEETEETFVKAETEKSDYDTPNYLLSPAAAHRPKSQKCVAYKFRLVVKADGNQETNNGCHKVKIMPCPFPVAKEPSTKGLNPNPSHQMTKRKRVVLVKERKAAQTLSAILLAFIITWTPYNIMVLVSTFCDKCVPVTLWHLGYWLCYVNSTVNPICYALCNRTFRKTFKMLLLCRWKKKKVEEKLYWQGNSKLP
UniProt P13569, whole entry: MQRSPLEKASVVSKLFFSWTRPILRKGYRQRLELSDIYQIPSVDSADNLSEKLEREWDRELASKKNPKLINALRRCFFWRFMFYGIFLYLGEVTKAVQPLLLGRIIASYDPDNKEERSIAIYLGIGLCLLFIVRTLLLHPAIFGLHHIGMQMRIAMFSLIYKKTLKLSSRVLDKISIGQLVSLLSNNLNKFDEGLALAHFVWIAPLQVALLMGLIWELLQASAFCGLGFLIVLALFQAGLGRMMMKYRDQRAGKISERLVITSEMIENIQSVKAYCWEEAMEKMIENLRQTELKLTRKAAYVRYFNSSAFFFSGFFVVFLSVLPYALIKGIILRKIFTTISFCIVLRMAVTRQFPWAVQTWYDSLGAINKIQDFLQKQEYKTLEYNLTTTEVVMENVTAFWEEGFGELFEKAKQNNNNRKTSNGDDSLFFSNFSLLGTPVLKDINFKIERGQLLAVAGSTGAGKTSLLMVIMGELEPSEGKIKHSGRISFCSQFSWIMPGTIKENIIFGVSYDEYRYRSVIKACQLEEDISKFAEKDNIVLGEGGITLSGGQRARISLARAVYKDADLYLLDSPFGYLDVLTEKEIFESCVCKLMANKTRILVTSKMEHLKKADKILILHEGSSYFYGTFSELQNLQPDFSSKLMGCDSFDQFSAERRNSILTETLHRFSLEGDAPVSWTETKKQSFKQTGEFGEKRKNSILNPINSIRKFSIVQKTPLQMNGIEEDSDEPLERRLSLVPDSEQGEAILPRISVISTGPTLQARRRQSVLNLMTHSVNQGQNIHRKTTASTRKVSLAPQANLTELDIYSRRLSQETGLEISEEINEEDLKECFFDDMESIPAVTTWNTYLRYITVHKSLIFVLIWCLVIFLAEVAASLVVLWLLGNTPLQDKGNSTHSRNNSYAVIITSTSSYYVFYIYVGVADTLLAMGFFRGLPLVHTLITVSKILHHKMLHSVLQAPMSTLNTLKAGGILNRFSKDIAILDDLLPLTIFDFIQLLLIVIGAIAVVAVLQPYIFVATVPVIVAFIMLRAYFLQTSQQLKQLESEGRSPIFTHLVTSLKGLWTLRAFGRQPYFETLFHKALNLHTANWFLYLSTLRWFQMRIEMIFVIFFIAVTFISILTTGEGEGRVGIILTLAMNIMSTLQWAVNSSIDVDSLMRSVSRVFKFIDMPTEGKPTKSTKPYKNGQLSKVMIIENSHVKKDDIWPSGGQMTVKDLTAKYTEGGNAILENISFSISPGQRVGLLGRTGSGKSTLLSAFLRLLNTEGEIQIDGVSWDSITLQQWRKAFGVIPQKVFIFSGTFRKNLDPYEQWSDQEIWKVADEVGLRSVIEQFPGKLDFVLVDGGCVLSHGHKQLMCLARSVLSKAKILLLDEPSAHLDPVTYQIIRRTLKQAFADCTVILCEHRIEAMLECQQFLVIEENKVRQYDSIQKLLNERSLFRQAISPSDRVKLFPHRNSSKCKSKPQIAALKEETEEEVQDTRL
UniProt P33033, whole entry: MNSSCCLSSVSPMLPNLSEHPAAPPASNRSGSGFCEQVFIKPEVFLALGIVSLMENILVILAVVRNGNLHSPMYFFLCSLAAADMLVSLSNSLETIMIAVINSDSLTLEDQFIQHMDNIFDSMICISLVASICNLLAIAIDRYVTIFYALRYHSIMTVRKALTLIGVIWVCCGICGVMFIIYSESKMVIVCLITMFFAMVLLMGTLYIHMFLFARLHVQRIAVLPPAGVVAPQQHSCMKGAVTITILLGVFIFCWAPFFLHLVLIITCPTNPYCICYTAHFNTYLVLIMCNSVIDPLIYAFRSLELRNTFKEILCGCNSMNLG
UniProt P41149, whole entry: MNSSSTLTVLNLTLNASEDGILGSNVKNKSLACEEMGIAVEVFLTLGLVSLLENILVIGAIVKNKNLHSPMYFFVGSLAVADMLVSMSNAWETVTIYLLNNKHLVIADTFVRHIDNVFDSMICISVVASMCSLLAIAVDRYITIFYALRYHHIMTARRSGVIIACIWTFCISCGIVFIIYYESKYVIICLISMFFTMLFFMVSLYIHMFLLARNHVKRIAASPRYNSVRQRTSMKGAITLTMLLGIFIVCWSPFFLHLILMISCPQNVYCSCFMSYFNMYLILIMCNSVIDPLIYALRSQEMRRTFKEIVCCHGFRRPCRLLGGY
UniProt P25090, whole entry: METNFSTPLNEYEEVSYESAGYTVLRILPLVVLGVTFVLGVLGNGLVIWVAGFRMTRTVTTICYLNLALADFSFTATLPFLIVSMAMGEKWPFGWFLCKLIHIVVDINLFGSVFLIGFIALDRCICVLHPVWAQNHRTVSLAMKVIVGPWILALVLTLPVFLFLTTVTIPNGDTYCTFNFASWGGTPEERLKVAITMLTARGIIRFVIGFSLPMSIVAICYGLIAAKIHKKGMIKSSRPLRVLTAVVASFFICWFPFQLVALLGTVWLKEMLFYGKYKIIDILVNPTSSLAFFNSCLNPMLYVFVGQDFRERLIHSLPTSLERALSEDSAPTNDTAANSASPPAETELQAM
UniProt Q16281, whole entry: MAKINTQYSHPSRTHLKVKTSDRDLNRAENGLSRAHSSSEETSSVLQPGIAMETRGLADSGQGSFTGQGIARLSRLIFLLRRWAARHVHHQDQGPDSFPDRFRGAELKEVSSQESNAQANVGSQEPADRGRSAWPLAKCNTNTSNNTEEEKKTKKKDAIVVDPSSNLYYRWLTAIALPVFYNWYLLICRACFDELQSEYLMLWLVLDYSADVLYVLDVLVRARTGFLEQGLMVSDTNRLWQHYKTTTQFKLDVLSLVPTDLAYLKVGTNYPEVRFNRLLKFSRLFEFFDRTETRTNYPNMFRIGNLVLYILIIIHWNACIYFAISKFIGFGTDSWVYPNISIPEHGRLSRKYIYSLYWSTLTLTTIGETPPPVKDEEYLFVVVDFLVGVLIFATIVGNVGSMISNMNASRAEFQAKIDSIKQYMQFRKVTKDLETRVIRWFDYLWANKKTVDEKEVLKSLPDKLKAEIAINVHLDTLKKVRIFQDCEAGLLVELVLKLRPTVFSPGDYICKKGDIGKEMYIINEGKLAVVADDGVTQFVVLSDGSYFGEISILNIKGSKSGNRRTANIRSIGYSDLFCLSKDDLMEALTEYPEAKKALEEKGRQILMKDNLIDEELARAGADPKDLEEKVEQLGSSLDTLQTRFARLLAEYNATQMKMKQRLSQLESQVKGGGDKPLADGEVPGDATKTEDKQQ
UniProt P11229, whole entry: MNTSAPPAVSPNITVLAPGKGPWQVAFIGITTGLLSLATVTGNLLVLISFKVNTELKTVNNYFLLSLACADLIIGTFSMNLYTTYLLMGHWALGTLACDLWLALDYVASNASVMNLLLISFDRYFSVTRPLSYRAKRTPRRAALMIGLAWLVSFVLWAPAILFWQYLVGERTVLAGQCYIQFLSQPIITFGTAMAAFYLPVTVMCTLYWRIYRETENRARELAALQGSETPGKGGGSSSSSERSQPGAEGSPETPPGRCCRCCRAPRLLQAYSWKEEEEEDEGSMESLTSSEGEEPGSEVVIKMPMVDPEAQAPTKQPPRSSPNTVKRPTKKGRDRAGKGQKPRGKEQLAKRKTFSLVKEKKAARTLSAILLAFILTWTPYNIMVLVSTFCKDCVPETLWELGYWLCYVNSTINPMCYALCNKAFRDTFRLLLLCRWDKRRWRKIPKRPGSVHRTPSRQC
UniProt Q02750, whole entry S218A/S222A: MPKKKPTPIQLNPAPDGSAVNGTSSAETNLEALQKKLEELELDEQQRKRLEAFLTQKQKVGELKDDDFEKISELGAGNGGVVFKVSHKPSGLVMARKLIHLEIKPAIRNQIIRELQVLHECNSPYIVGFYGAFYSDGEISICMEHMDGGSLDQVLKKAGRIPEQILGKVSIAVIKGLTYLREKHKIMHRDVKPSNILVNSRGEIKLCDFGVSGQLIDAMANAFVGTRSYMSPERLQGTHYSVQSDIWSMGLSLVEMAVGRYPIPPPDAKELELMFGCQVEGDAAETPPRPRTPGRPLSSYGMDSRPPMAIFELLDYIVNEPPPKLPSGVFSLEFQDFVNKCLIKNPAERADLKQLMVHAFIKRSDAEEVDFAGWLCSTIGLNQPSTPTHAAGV

`Oc1ccc(N=Cc2c(O)ccc3ccccc23)cc1` has an EC50 of 12000 ± 800 nM (CDK2 (Homo sapiens, UniProt P24941); ANS displacement; 5 % DMSO, added: ANS 50 µM; reference: staurosporine 0 µM).
`NS(=O)(=O)c1ccc(Cc2c(-c3cccc(-c4ccccc4)c3)nn(-c3nc(C(=O)O)cs3)c2C2CC2)c(F)c1` gave an EC50 of 1500 nM (LDHA; thermal stabilisation, CETSA; HEK293; 3.5 min, 71 °C).
`CC(C)(Cn1cc(-c2ccc(N)nc2)nn1)c1c[nH]c2ccccc12` gave an EC50 of 459 nM (GLP1R; cAMP accumulation, positive allosteric modulator, HTRF; CHO-K1 expressing GLP1R; crude reaction product, added: GLP-1(9-36) at EC20).
`Cc1ccc2ncn(CC3CCN(S(=O)(=O)c4cccc(C(F)(F)F)c4)CC3)c2c1` has an EC50 of 1700 nM (KCNT1; thallium flux, activator; HEK293 expressing KCNT1).
`COC(=O)C1(C)C=C(C(=O)Nc2cccc(C(=O)Nc3ccc(Nc4nccc(-c5cccnc5)n4)c(C)c3)c2)C(=O)C1` (centres unmarked) has an EC50 of 9.4 ± 0.4 nM (MAPK8 (Homo sapiens, UniProt P45983); JNK1 binding, NanoBRET; HEK293 cells; 2 h, added: tracer K-5).
For `O=C(N[C@@H]1CCc2ccccc21)C1CCN(S(=O)(=O)c2ccc3[nH]ncc3c2)CC1`, the EC50 was greater than 10000 nM (CHRM5 (Homo sapiens, UniProt P08912); positive allosteric modulator, calcium mobilization; CHO cells expressing human M5; added: acetylcholine EC20).
`Cc1nc(-c2ccc(OCC(C)C)c(C#N)c2)sc1C(=O)N1CCC(F)(F)CC1` gave an EC50 of 2400 nM (Grm2; thallium flux, positive allosteric modulator; HEK293 GIRK; added: glutamate EC20).
The EC50 of `NCCCCNC(=O)[C@H](Cc1ccc2ccccc2c1)NC(=O)N1CCc2ccccc2C1` is reported as greater than 100000 nM (Melanocortin receptor 4 (Mus musculus, UniProt P56450); reporter gene, agonist, β-galactosidase reporter; HEK293 stably expressing Melanocortin receptor 4).
`CCCn1c(=O)c(-c2cccc(NC(C)=O)c2)nc2ccccc21` gave an EC50 of greater than 25000 nM (CFTR (Homo sapiens, UniProt P13569); iodide influx, activator, YFP halide sensor; FRT; approximate, added: forskolin 125 nM).
`COc1ccc(NC(=O)CN2CCCN(S(=O)(=O)c3ccc(Cl)c(Cl)c3)CC2)c(OC)c1` has an EC50 of greater than 10000 nM (GRM4; calcium mobilization, positive allosteric modulator; CHO cells with Gqi5; added: glutamate EC20).
`Cc1[nH]c2cc(Cl)cc(Cl)c2c1CCn1cc(CCN)nn1` gave an EC50 of 1130 ± 295 nM (GLP1R; cAMP accumulation, positive allosteric modulator, HTRF; CHO-K1 expressing GLP1R; purified compound, added: GLP-1(9-36) at EC20).
The EC50 of `Cc1nc2ccc(S(=O)(=O)n3nc(CCc4ccc(Cl)cc4)nc3N)cc2o1` is reported as 6500 nM (Lysophospholipase-like protein 1; enzyme activity, activator, gel-based ABPP, FP-rhodamine; purified protein).
With `CNc1ccc(N)cc1-n1cnc(-c2ccc(C(F)(F)F)cc2)c1` the EC50 was greater than 100000 nM (Toll-like receptor 1/2 (Homo sapiens, UniProt O60603+Q15399); reporter gene, agonist, SEAP reporter; HEK-Blue hTLR2; 24 h).
With `COc1ccccc1-c1cc(C(F)(F)F)nc(S(C)(=O)=O)n1` the EC50 was 11000 ± 6100 nM (GLP1R; cAMP accumulation, agonist; HEK293T overexpressing target; no peptide ligand).
`COc1ccc(NC(=O)CN2CCCN(S(=O)(=O)c3cc(C)c(Cl)cc3F)CC2)c(OC)c1` gave an EC50 of 2700 ± 200 nM (GRM4; calcium mobilization, positive allosteric modulator; CHO cells with Gqi5; added: glutamate EC20).
`Cc1[nH]c2cc(Cl)cc(Cl)c2c1CCn1cc(COCCOCCO)nn1` gave an EC50 of 1390 ± 44 nM (GLP1R; cAMP accumulation, positive allosteric modulator, HTRF; CHO-K1 expressing GLP1R; purified compound, added: GLP-1(9-36) at EC20).
For `COc1cccc(Cc2cc(C)nn(C(C(=O)Nc3ccc(Br)cc3)C(C)C)c2=O)c1` (racemic), the EC50 was 2000 nM (FPR1 (Homo sapiens, UniProt P21462); calcium mobilization, agonist; HL-60 transfected with FPR1).
`NCC(c1ccccc1)c1cccc(Oc2ccccc2)c1` (centres unmarked) gave an EC50 of 43 ± 5 nM (Taar1 (Mus musculus, UniProt Q923Y8, T268M/Y287N); cAMP production, agonist; double mutant).
With `NCCCCNC(=O)[C@H](Cc1ccccc1)NC(=O)N1CCc2ccccc2C1` the EC50 was greater than 100000 nM (Melanocortin receptor 3 (Mus musculus, UniProt P33033); reporter gene, agonist, β-galactosidase reporter; HEK293 stably expressing Melanocortin receptor 3).
With `Cc1[nH]c2cc(Cl)cc(Cl)c2c1CCn1cc(CCCN)nn1` the EC50 was 574 ± 60 nM (GLP1R; cAMP accumulation, positive allosteric modulator, HTRF; CHO-K1 expressing GLP1R; purified compound, added: GLP-1(9-36) at EC20).
`Nc1nc(SCc2ccc(Cl)c(Cl)c2)nn1S(=O)(=O)c1ccc2c(c1)CCO2` has an EC50 of 770 nM (Lysophospholipase-like protein 1; enzyme activity, activator, gel-based ABPP, FP-rhodamine; purified protein).
With `N#CC[C@@]12C[C@@H]1[C@@H](n1cnc3c(NCc4cccc(Cl)c4)nc(I)nc31)[C@H](O)[C@@H]2O` the EC50 was 1700 nM (SLC6A3 (Homo sapiens, UniProt Q01959)).
For `CC(C)(Cn1cc(CNC(=O)Cc2ccccc2)nn1)c1c[nH]c2ccccc12`, the EC50 was 959 nM (GLP1R; cAMP accumulation, positive allosteric modulator, HTRF; CHO-K1 expressing GLP1R; crude reaction product, added: GLP-1(9-36) at EC20).
`Nc1nc(NCc2ccc(Cl)cc2)nn1S(=O)(=O)c1cccc2ccccc12` gave an EC50 of 2400 nM (Lysophospholipase-like protein 1; enzyme activity, activator, gel-based ABPP, FP-rhodamine; purified protein).
With `CCCn1c(NCc2cccc(OC)c2O)nc2ccccc21` the EC50 was 750 ± 74 nM (ALDH1A1; enzyme activity, inhibitor, NADH absorbance 340 nm; pH 7.5, 25 °C, 200 µM NAD+, added: 100 µM propionaldehyde).
`NCCCCNC(=O)[C@H](Cc1ccc(I)cc1)NC(=O)N1CCc2ccccc2C1` gave an EC50 of 43000 ± 11000 nM (Melanocortin receptor 5 (Mus musculus, UniProt P41149); reporter gene, agonist, β-galactosidase reporter; HEK293 stably expressing Melanocortin receptor 5).
The EC50 of `O=C(Nc1ccc([N+](=O)[O-])cc1)N[C@H](Cc1c[nH]c2ccccc12)C(=O)NCC1(c2ccccn2)CCCCC1` is reported as 190 ± 60 nM (FPR2 (Homo sapiens, UniProt P25090); Ca2+ mobilization, agonist; HL-60 transfected with FPR2).
With `CCC(C(=O)Nc1ccc(-c2ccccc2)cn1)n1nnc(-c2ccncc2)c1-c1ccccc1` (centres unmarked) the EC50 was 1.8 nM (Protein-serine O-palmitoleoyltransferase porcupine (Mus musculus, UniProt Q9JJJ7); Wnt signalling reporter, inhibitor; L-Wnt-STF).
For `CCc1ccc(NS(=O)(=O)c2cn(Cc3ccccn3)c3ncccc23)cc1`, the EC50 was 550 nM (Cystic fibrosis transmembrane conductance regulator, W1282X (CFTR, Homo sapiens, UniProt P13569); chloride current, co-potentiator, short-circuit current; FRT expressing CFTR; added: 20 µM forskolin, 5 µM ivacaftor).
`CC(C)(Cn1cc(-c2ccc(B(O)O)cc2)nn1)c1c[nH]c2ccccc12` has an EC50 of 1050 ± 324 nM (GLP1R; cAMP accumulation, positive allosteric modulator, HTRF; CHO-K1 expressing GLP1R; purified compound, added: GLP-1(9-36) at EC20).
`CCCCCCCC(=O)OCC(COP(=O)(O)OC1C(O)C(OP(=O)(O)O)C(OP(=O)(O)O)C(OP(=O)(O)O)C1O)OC(=O)CCCCCCC` (centres unmarked) gave an EC50 of 580 nM (CNGA3/CNGB3 (Homo sapiens, UniProt Q16281+Q9NQW8); increase in cGMP K1/2, inside-out patch clamp; CNGA3/CNGB3 heteromer).
`NCC(c1ccc(O)cc1)c1ccc(O)cc1` gave an EC50 of no less than 10000 nM (Taar1 (Mus musculus, UniProt Q923Y8); cAMP production, agonist).
With `CN(Cc1ccccc1)Cc1cn(CC(C)(C)c2c[nH]c3ccccc23)nn1` the EC50 was 687 nM (GLP1R; cAMP accumulation, positive allosteric modulator, HTRF; CHO-K1 expressing GLP1R; crude reaction product, added: GLP-1(9-36) at EC20).
The EC50 of `Nc1nc(NCCc2ccc(Cl)cc2)nn1S(=O)(=O)c1ccc2c(c1)CCO2` is reported as greater than 20000 nM (Lysophospholipase-like protein 1; enzyme activity, activator, gel-based ABPP, FP-rhodamine; purified protein).
The EC50 of `COc1ccc(NC(=O)CN2CCCN(S(=O)(=O)c3ccc(C)cc3)CC2)c(OC)c1` is reported as 3300 ± 200 nM (GRM4; calcium mobilization, positive allosteric modulator; CHO cells with Gqi5; added: glutamate EC20).
For `O=C(Nc1ccccc1F)C12CC1/C(=N\O)c1ccccc1O2` (centres unmarked), the EC50 was greater than 5000 nM (GRM4; calcium mobilization, positive allosteric modulator; CHO hmGluR4/Gqi5; added: glutamate EC20).
For `O=C(N[C@H]1CCCC[C@@H]1O)[C@@H]1CN(Cc2ccc(-n3cccn3)cc2)c2ccccc2O1`, the EC50 was 630 nM (CHRM1 (Homo sapiens, UniProt P11229); calcium mobilization, positive allosteric modulator; high-expression cell line; added: acetylcholine EC20).
The EC50 of `NCC(c1ccc(O)cc1)c1ccc(Oc2ccccc2)cc1` (centres unmarked) is reported as roughly 1000 nM (Trace amine-associated receptor 1 (Rattus norvegicus, UniProt Q923Y9, N287Y); cAMP, agonist; rat receptor mutant).
`COc1ccc(NC(=O)CN2CCCN(S(=O)(=O)c3ccc(C)c(Cl)c3)CC2)c(OC)c1` gave an EC50 of 3400 ± 200 nM (GRM4; calcium mobilization, positive allosteric modulator; CHO cells with Gqi5; added: glutamate EC20).
For `Cc1cnc(C#Cc2cccc(-c3nn(-c4nc(C(=O)O)cs4)c(CC4CC4)c3Cc3ccc(S(N)(=O)=O)c(F)c3)c2)o1`, the EC50 was 40 nM (LDHA; thermal stabilisation, CETSA; HEK293; 3.5 min, 71 °C).
`CCCn1c(NCc2cccc(F)c2O)nc2ccccc21` gave an EC50 of 3000 ± 50 nM (ALDH1A1; enzyme activity, inhibitor, NADH absorbance 340 nm; pH 7.5, 25 °C, 200 µM NAD+, added: 100 µM propionaldehyde).
`COc1ccc(NC(=O)CN2CCCN(S(=O)(=O)c3ccccc3F)CC2)c(OC)c1` has an EC50 of 3500 ± 500 nM (GRM4; calcium mobilization, positive allosteric modulator; CHO cells with Gqi5; added: glutamate EC20).
`Cc1nc(-c2ccc(OCC(C)C)c(C#N)c2)sc1C(=O)N(C)C` gave an EC50 of 770 nM (Grm2; thallium flux, positive allosteric modulator; HEK293 GIRK; added: glutamate EC20).
`CSc1cc(NC(=O)c2ccccn2)ccc1Cl` gave an EC50 of greater than 30000 nM (GRM5 (Homo sapiens, UniProt P41594); agonist).
`Cc1cccc2c1ncn2CC1CCN(S(=O)(=O)c2cccc(C(F)(F)F)c2)CC1` gave an EC50 of 1900 nM (KCNT1; thallium flux, activator; HEK293 expressing KCNT1).
With `Nc1nc(SCc2ccc(Cl)cc2)nn1S(=O)(=O)c1cccc2nonc12` the EC50 was 230 nM (LYPLAL1 (Homo sapiens, UniProt Q5VWZ2); enzyme activity, activator, gel-based ABPP, FP-rhodamine; purified protein).
The EC50 of `Cc1c(=O)n(C)c(Nc2ccc(I)cc2F)c2c(=O)n(C3CC3)c(=O)n(-c3cccc(NC(=O)CCOCCOCCNC(=O)CCC4=[N+]5C(=Cc6ccc(-c7ccc[nH]7)n6[B-]5(F)F)C=C4)c3)c12` is reported as 22 ± 2 nM (MAP2K1 (Homo sapiens, UniProt Q02750, S218A/S222A); binding, NanoBRET; HEK-293T; MEK1 S218A/S222A NanoLuc fusion).
